Published values gathered from unrelated publications.
Each numbered part is a random draw from the data of one study; scales do not carry over between parts.
Sequence of UniProt P42336 (whole entry, unmodified, looked up): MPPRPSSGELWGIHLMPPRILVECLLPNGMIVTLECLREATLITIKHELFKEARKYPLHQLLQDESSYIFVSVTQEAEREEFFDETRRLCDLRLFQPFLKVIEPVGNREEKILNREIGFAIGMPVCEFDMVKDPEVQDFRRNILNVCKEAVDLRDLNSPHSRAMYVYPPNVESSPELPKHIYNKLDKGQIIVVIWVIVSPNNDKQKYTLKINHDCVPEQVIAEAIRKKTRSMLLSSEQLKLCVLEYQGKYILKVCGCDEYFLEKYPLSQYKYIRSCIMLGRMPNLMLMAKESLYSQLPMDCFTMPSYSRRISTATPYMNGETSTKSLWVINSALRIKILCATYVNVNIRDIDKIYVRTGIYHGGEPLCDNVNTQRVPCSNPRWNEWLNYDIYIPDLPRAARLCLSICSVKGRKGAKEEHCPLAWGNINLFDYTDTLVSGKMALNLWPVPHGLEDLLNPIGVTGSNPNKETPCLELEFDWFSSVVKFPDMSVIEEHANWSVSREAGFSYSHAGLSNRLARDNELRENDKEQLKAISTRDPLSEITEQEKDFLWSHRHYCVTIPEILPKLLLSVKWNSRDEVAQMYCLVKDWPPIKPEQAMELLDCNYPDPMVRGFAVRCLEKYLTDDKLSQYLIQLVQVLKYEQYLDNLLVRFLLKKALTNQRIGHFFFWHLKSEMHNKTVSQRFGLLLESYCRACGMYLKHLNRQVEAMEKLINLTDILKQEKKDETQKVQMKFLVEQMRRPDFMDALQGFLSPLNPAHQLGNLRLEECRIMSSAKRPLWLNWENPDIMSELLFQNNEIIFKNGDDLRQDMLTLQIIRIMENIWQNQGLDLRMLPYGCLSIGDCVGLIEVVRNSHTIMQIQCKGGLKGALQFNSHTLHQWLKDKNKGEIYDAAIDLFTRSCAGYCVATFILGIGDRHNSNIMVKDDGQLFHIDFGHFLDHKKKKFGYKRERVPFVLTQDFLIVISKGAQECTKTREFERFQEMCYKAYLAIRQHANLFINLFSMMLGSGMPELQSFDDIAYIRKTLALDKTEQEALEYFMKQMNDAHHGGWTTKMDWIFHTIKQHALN
Sequence of UniProt Q9P2K8 (whole entry, unmodified, looked up): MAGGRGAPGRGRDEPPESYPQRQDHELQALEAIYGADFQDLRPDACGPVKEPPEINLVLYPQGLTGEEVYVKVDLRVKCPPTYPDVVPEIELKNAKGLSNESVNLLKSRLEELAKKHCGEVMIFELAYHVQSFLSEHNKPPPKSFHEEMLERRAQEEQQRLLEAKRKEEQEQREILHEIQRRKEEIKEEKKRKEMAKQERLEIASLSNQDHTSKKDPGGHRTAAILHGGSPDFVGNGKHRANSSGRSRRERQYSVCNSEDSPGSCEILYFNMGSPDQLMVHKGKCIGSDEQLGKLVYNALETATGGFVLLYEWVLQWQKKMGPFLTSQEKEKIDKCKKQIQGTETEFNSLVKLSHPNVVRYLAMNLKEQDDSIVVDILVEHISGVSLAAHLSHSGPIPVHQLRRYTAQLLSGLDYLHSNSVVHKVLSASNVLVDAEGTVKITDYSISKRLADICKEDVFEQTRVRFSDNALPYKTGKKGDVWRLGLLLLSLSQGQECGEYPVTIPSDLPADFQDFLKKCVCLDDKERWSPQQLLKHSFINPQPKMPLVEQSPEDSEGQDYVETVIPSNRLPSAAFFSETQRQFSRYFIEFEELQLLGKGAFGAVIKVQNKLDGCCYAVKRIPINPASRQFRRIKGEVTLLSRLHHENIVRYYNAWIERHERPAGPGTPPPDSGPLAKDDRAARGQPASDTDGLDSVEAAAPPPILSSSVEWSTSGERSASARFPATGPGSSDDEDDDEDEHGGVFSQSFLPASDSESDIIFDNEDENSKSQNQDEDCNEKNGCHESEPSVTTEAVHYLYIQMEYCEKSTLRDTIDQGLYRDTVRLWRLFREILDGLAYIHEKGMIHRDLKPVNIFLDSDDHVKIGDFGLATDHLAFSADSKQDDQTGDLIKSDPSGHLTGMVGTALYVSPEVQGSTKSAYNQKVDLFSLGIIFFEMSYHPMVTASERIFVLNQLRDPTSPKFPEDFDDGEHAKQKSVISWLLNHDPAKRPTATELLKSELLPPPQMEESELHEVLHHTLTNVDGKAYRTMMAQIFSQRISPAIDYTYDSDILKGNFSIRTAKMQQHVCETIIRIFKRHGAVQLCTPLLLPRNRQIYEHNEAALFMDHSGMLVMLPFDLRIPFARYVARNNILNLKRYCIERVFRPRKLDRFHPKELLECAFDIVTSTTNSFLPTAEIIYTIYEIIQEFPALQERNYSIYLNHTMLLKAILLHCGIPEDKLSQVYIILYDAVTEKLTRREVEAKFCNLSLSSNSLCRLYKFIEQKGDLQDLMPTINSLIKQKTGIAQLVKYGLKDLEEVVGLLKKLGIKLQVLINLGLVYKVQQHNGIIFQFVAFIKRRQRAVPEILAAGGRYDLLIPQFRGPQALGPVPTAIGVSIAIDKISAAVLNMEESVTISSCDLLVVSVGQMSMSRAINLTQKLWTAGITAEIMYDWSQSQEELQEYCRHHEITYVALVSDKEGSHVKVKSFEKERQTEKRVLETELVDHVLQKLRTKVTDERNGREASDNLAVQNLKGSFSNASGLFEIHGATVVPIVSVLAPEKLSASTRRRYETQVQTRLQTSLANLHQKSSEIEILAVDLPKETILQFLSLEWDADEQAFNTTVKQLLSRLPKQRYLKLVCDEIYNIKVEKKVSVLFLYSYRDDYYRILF
Sequence of UniProt P43403 (whole entry, looked up): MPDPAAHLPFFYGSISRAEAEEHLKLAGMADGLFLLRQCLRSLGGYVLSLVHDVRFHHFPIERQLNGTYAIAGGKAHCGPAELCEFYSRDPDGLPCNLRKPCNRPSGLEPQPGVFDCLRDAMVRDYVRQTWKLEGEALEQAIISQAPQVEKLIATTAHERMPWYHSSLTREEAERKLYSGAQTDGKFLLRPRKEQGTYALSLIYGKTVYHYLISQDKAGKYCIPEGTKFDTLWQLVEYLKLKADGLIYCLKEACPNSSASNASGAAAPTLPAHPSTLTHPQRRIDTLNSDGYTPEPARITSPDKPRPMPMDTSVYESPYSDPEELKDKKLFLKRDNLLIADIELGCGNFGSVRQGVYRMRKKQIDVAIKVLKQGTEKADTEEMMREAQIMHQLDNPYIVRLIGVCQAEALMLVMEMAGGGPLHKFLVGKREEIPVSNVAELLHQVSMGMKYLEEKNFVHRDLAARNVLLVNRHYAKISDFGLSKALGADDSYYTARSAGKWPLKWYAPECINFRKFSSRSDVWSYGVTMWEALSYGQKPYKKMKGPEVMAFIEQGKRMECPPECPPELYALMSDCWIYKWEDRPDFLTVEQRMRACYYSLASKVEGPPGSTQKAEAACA
Sequence of UniProt Q9UK32 (whole entry, looked up): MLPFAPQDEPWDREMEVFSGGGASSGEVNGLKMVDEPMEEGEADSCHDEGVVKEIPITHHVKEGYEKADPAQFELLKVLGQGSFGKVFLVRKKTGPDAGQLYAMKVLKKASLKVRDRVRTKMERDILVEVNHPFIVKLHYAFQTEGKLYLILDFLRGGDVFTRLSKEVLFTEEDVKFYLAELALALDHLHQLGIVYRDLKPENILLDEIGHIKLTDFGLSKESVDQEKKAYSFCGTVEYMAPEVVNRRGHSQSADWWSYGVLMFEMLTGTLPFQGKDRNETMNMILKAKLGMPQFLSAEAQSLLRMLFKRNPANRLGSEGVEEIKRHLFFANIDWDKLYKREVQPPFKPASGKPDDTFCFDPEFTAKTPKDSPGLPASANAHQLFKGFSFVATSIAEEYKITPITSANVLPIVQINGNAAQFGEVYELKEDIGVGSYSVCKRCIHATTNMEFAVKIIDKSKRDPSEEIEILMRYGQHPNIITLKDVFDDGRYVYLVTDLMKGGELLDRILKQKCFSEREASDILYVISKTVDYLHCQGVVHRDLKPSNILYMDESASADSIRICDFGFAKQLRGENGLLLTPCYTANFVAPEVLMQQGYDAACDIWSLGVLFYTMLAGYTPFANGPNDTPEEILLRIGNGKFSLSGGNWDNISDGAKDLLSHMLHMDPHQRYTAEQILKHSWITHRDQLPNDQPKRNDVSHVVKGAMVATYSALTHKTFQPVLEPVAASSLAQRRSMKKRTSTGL

Block 1
Compound: Nc1cnc(N2CCc3cc(S(=O)(=O)Nc4c(F)cc(Cl)cc4F)cc(N4CCCC4=O)c32)nc1
Read-out: cell-free assay
Method: competition with immobilised ligand
Concentration: 1 µM
Endpoint: remaining binding
target = Ribosomal protein S6 kinase alpha-6, N-terminal kinase domain (RPS6KA6, Homo sapiens, UniProt Q9UK32); result = 86%
target = PIK3CA (Homo sapiens, UniProt P42336, M1043I); result = 100%
target = TRPM6 (Homo sapiens, UniProt Q9BX84); result = 93%
target = TGFBR1 (Homo sapiens, UniProt P36897); result = 100%
target = ZAP70 (Homo sapiens, UniProt P43403); result = 85%
target = PIK3CA (Homo sapiens, UniProt P42336, I800L); result = 80%
target = ULK1 (Homo sapiens, UniProt O75385); result = 95%
target = eIF-2-alpha kinase GCN2, C-terminal kinase domain (EIF2AK4, Homo sapiens, UniProt Q9P2K8, S808G); result = 100%
target = PIK3C2G (Homo sapiens, UniProt O75747); result = 78%
target = COQ8A (Homo sapiens, UniProt Q8NI60); result = 100%
target = WNK1 (Homo sapiens, UniProt Q9H4A3); result = 100%
target = ULK2 (Homo sapiens, UniProt Q8IYT8); result = 100%
target = PIP5K1C (Homo sapiens, UniProt O60331); result = 75%

Block 2
Target: Centromere-binding protein 1, full length, N-terminal tag (CBF1, Saccharomyces cerevisiae, UniProt P17106, residues 1-351)
Sequence of UniProt P17106 (whole entry, looked up): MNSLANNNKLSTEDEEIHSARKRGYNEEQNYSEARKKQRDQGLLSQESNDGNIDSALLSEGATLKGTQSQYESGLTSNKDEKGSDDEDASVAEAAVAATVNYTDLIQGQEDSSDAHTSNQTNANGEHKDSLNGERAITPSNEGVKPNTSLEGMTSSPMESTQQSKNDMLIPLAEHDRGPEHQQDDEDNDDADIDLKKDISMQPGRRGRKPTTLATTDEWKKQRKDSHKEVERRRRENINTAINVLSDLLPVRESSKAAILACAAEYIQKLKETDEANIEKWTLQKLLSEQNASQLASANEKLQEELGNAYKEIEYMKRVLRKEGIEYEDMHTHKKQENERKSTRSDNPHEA
Method: protein-binding microarray
Molecule type: double-stranded DNA, one strand shown
Matrix: in vitro
Concentration: 0.8 µM
Setting: whole 60-bp probe, no competitor
Reading: higher = stronger binding
Endpoint: fluorescence intensity
Strand = CCTAACTACTATAATGACACGCTATAGCTTCGTACAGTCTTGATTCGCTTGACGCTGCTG; result = 530 a.u.
Strand = GAAGTTTTTTTTTTCATCACCATCGCATCGCAATAGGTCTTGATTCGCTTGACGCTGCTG; result = 559 a.u.
Strand = CCTAACTACTATATTGACATGATATAGCTTCGTACAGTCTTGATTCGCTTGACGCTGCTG; result = 534 a.u.
Strand = CTAGTTACAAGTTCAATGGTGGTGCAAGGATTGTTCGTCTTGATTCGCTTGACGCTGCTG; result = 520 a.u.
Strand = CTAAATAACTGCCAAAACGTGGTTCTCGCACGCTTCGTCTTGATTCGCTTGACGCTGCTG; result = 567 a.u.
Strand = TGTACGAAGCTATGTCACCTCATTATAGTAGTTAGGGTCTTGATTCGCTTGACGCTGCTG; result = 535 a.u.
Strand = GAATTCAAAACTCATCACCAAAAAAAAAAAATTTAGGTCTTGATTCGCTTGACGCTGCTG; result = 483 a.u.
Strand = GAACCCCTGAACAATCAGCTGAGGTCAGAGATCTAGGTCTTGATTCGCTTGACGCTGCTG; result = 514 a.u.

Block 3
Target: Calcium/calmodulin-dependent protein kinase type 1D (CAMK1D, Homo sapiens, UniProt Q8IU85)
Sequence of UniProt Q8IU85 (whole entry, looked up): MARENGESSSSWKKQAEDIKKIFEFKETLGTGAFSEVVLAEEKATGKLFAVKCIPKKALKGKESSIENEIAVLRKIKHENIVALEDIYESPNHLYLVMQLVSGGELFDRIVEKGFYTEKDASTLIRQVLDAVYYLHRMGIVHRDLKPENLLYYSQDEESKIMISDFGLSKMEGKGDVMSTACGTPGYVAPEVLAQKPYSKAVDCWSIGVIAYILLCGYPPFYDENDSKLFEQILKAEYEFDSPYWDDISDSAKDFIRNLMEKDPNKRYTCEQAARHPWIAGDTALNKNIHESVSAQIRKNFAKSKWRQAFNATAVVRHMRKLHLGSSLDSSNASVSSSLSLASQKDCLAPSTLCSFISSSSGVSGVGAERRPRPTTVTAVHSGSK
Read-out: enzyme activity
Mode: inhibitor
Concentration: 0.5 µM
Reference: control
Endpoint: remaining activity
SMILES = CN(C)c1ccc(C=C2C(=O)Nc3ccccc32)cc1; result = 98.8%
SMILES = O=C1NC(=O)C(c2cn(CCCO)c3ncccc23)=C1c1cnccn1; result = 95.1%
SMILES = Nc1ncnc2n[nH]c(Nc3ccc(F)cc3)c12; result = 130%
SMILES = OCC(O)CCON=C1C(c2c(O)[nH]c3ccccc23)=Nc2ccccc21 (stereo not shown); result = 80.3%
SMILES = Nc1ccc2ncnc(NCCc3ccc(Oc4ccccc4)cc3)c2c1; result = 102%
SMILES = Nc1[nH]nc2nc3ccccc3nc12; result = 98.3%
SMILES = O=S(=O)(c1cccc2cnccc12)N1CCCNCC1; result = 91.5%
SMILES = N#CC(C#N)=C(N)/C(C#N)=C/c1ccc(O)cc1; result = 98.9%
SMILES = O=C1NC(=O)C(c2cn(CCCn3ccnc3)c3ccccc23)=C1Nc1ccccc1; result = 97.4%
SMILES = Cn1c2ccccc2c2c3c(c4c5ccccc5n(CCC#N)c4c21)CNC3=O; result = 82.4%
SMILES = O=c1c2ccccc2[nH]c(=S)n1CCN1CCC(=C(c2ccc(F)cc2)c2ccc(F)cc2)CC1; result = 96.8%
SMILES = O=C(Nc1cccc(Nc2cc(Nc3cccc(C(F)(F)F)c3)ncn2)c1)C1CC1; result = 100%
SMILES = Cn1sc(=O)n(Cc2ccccc2)c1=O; result = 97.1%
SMILES = Cc1ccc(Nc2nccc(N(C)c3ccc4c(C)n(C)nc4c3)n2)cc1S(N)(=O)=O; result = 91.5%

Block 4
Target: Histone acetyltransferase KAT6A, winged helix 2, GST fusion (KAT6A, Homo sapiens, UniProt Q92794, residues 85-181)
Method: protein binding microarray
Molecule type: double-stranded DNA, one strand shown
Matrix: in vitro
Concentration: not given
Setting: 8-mer, flanks averaged, mean of 2 arrays, mostly near background
Reference: not given
Reading: higher = stronger binding
Endpoint: E-score
Residues (chain): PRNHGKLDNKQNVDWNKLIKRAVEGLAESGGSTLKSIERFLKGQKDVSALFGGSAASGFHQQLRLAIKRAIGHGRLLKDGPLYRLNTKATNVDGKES
Strand = ATACGCCA; result = 0.0671
Strand = AGCAGGAA; result = 0.0574
Strand = CGTTTTGC; result = 0.111
Strand = CGTGAGTC; result = -0.181
Strand = AATCTCCC; result = -0.0411
Strand = CGGATAGA; result = 0.142
Strand = ACCGTGTA; result = -0.189
Strand = CTACTACC; result = -0.0821

A few entries again (block 1):
target = eIF-2-alpha kinase GCN2, C-terminal kinase domain (EIF2AK4, Homo sapiens, UniProt Q9P2K8, S808G); result = 100%
target = ZAP70 (Homo sapiens, UniProt P43403); result = 85%
target = PIK3C2G (Homo sapiens, UniProt O75747); result = 78%
target = PIK3CA (Homo sapiens, UniProt P42336, M1043I); result = 100%
target = PIP5K1C (Homo sapiens, UniProt O60331); result = 75%
